Values quoted from earlier work that unrelated publications cite.
Each numbered part shows a few of the values that one paper quotes. ± marks the error that the study gave.

Study 1
Target: HLA class I histocompatibility antigen, B alpha chain, allele B*15:09 (Homo sapiens, UniProt P01889)
Observed: peptide-MHC binding
Form: peptide
Quantity: IC50
Sequence = FLGRIWPS; result = > 20 µM
Sequence = YHENWSATL; result = 0.001 µM
Sequence = FRDRGQHVL; result = 0.001 µM

Further values, each from its own experiment
SMILES = O=S(=O)(O)c1nc2cc(Cl)ccc2[nH]1; tested on = RacE; assay = inhibitor; quantity = Ki; result = 13 ± 2.4 µM
SMILES = CCN(CC)C(=O)c1ccc([C@H](c2ccccc2)N2C[C@@H](C)N(Cc3cccc(F)c3)C[C@@H]2C)cc1; tested on = mu opioid receptor rat; quantity = Ki; result = 1.8 µM
SMILES = C=C[C@@H]1C[C@]1(NC(=O)[C@@H]1C[C@@H]2CN1C(=O)[C@H](C(C)(C)C)NC(=O)O[C@@H]1C[C@H]1CCCCCc1nc3ccc(OC)cc3nc1O2)C(=O)NS(=O)(=O)C1CC1; test system = healthy human subjects, plasma; setting = 100 mg, steady state; quantity = Cmax; result = 100 nM
SMILES = Cc1cc2nc3c(=O)[nH]c(=O)nc-3n(C[C@H](O)[C@H](O)[C@H](O)COP(=O)(O)O)c2cc1C; tested on = Enterobacter cloacae NfsB; setting = bound; quantity = midpoint potential; result = -190 mV
SMILES = Cc1ncc2n1-c1ccc(Cl)cc1C(c1ccccc1F)=NC2; test system = human; setting = oral, 7.5 mg; quantity = Cmax; result = 22 ng/mL

Some of these lines once more (further values, each from its own experiment):
SMILES = Cc1cc2nc3c(=O)[nH]c(=O)nc-3n(C[C@H](O)[C@H](O)[C@H](O)COP(=O)(O)O)c2cc1C; tested on = Enterobacter cloacae NfsB; setting = bound; quantity = midpoint potential; result = -190 mV
